Assay results gathered from unrelated publications.
± gives the spread as reported.

CC(C)C[C@@H](NC(=O)[C@@H](CCCNC(=N)N)NC(=O)[C@@H](Cc1c[nH]cn1)NC(=O)[C@@H](Cc1c[nH]c2ccccc12)NC(=O)[C@@H](Cc1c[nH]cn1)NC(=O)[C@@H](Cc1ccccc1)NC(=O)[C@H](NC(=O)[C@@H](Cc1ccc(O)cc1)NC(=O)CNC(=O)CNC(=O)CCOCCOCCOCCNC(=O)CN1CCN(CC(=O)O)CCN(CC(=O)O)CC1)[C@H](C)O)C(=O)N[C@H](CC(N)=O)C(=O)N1CCC[C@@H]1C(=O)O [gallium-68 labelled]
tissue ratio (C57BL/6 mice, male; intravenous, 1.85 MBq, 120 min; reference: tumour over heart): 5.69 ± 1.32

CC[C@H](C)[C@H](NC(=O)[C@H](CCCNC(=N)N)NC(=O)[C@H](CCCCN)NC(=O)[C@H](Cc1ccc(O)cc1)NC(=O)[C@H](CC(=O)O)NC(=O)[C@H](C)NC(=O)CNC(=O)CCOCCOCCOCCNC(=O)CN1CCN(CC(=O)O)CCN(CC(=O)O)CCN(CC(=O)O)CC1)C(=O)N[C@H](C(=O)N[C@H](C(=O)N[C@@H](CCCCN)C(=O)N[C@H](C(=O)N[C@@H](CC(N)=O)C(N)=O)C(C)C)C(C)C)[C@@H](C)O [copper-64 labelled]
tissue uptake (ex vivo gamma counting; C57BL/6J male mice, B16-F10 tumour, kidney; intravenous, 1.85 MBq, 5 min): 20.7 ± 2.76 %ID/g

CCCC[C@H]1C(=O)N(C)[C@@H](CCCC)C(=O)N[C@@H](CCCNC(=O)CN2CCN(CC(=O)O)CCN(CC(=O)O)CCN(CC(=O)O)CC2)C(=O)N[C@H](C(=O)NCC(N)=O)CSCC(=O)N[C@@H](Cc2ccc(O)cc2)C(=O)N(C)[C@@H](C)C(=O)N[C@@H](CC(N)=O)C(=O)N2CCC[C@H]2C(=O)N[C@@H](Cc2c[nH]cn2)C(=O)N[C@@H](CC(C)C)C(=O)N(C)CC(=O)N[C@@H](Cc2c[nH]c3ccccc23)C(=O)N[C@@H](CO)C(=O)N[C@@H](Cc2c[nH]c3ccccc23)C(=O)N1C [gallium-68 labelled]
tissue uptake (NOD/SCID mice with CHO-hPD-L1 xenograft, spleen; 10 min post injection): 3.78 ± 0.54 %ID/g

COc1cccc(O)c1C(=O)/C=C/c1ccc2cc(N3CCCC3)ccc2c1
tissue concentration (C57BL/6J mice, liver; intraperitoneal, 50 mg/kg single, 4 h): 54 ng/g

CC[C@H](C)[C@H](NC(=O)[C@H](CCCNC(=N)N)NC(=O)[C@H](CCCCN)NC(=O)[C@H](Cc1ccc(O)cc1)NC(=O)[C@H](CC(=O)O)NC(=O)[C@H](C)NC(=O)CNC(=O)CCOCCOCCOCCNC(=O)CN1CCN(CC(=O)O)CCN(CC(=O)O)CCN(CC(=O)O)CC1)C(=O)N[C@H](C(=O)N[C@@H](CC(C)C)C(=O)N[C@@H](CCCCN)C(=O)N[C@H](C(=O)N[C@@H](CC(N)=O)C(N)=O)C(C)C)[C@@H](C)O [copper-64 labelled]
tissue uptake (ex vivo gamma counting; C57BL/6J male mice, B16-F10 tumour, heart; intravenous, 1.85 MBq, 5 min): 2.13 ± 0.09 %ID/g

CSCC[C@H](NC(=O)CNC(=O)[C@H](CCCCN)NC(=O)[C@H](CC(C)C)NC(=O)[C@@H]1CCCN1C(=O)[C@H](CO)NC(=O)[C@H](Cc1c[nH]cn1)NC(=O)[C@H](Cc1c[nH]c2ccccc12)NC(=O)[C@H](CCCNC(=N)N)NC(=O)[C@H](CC(C)C)NC(=O)[C@H](CCCNC(=N)N)NC(=O)[C@H](Cc1c[nH]c2ccccc12)NC(=O)[C@H](CS)NC(=O)CCCCCNC(=O)CN1CCN(CC(=O)O)CCN(CC(=O)O)CCN(CC(=O)O)CC1)C(=O)O [copper-64 labelled]
tissue uptake (ex vivo biodistribution; male C57BL/6J mice, bone; intravenous, 1.85 MBq, 2 h, B16-F10 tumour-bearing): 1.83 %ID/g

C[C@H](O)[C@@H](NC(=O)[C@H]1CCCN1C(=O)[C@@H](CCCCN)NC(=O)[C@@H](CO)NC(=O)[C@@H](Cc1ccc(O)cc1)NC(=O)[C@@H](CC(N)=O)NC(=O)CCOCCOCCOCCNC(=O)CN1CCN(CC(=O)O)CCN(CC(=O)O)CCN(CC(=O)O)CC1)C(=O)N[C@H](CC(=O)O)C(=O)N[C@H](CCCNC(=N)N)C(=O)N[C@H](CCC(N)=O)C(=O)N[C@H](Cc1ccc(O)cc1)C(=O)N[C@H](Cc1c[nH]cn1)C(=O)N[C@H](Cc1ccccc1)C(N)=O [gallium-68 labelled]
tissue uptake (BALB/c nude mice U-87 MG tumour, pancreas; intravenous, 1.85 MBq, 1 h, radiolabelled): 0.16 ± 0.03 %ID/g

CC[C@H](C)[C@H](NC(=O)[C@H](CCCCN)NC(=O)CNC(=O)[C@H](CC(C)C)NC(=O)[C@H](Cc1ccccc1)NC(=O)[C@H](CCCCN)NC(=O)[C@H](CO)NC(=O)[C@H](Cc1ccccc1)NC(=O)[C@H](Cc1c[nH]c2ccccc12)NC(=O)[C@H](CCC(N)=O)NC(=O)[C@@H](NC(=O)[C@H](Cc1ccccc1)NC(=O)CCCCCNC(=O)CN1CCN(CC(=O)O)CCN(CC(=O)O)CCN(CC(=O)O)CC1)C(C)C)C(=O)N[C@@H](CCC(=O)O)C(=O)N1CCC[C@H]1C(=O)N[C@@H](CC(=O)O)C(=O)N[C@H](C(=O)N[C@@H](CO)C(=O)N[C@@H](CCC(N)=O)C(=O)N[C@H](C(=O)N[C@@H](CCC(N)=O)C(=O)N[C@@H](CC(=O)O)C(=O)N1CCC[C@H]1C(=O)N[C@@H](CC(N)=O)C(=O)N[C@@H](CC(=O)O)C(=O)N[C@@H](CCC(N)=O)C(=O)N[C@@H](Cc1ccc(O)cc1)C(=O)N[C@@H](CCC(=O)O)C(=O)N1CCC[C@H]1C(=O)N[C@@H](Cc1ccccc1)C(=O)O)C(C)C)C(C)C [copper-64 labelled]
tissue uptake (GZMB-/- mice, CT26 tumour-bearing, brain; 2 h, checkpoint inhibitor-treated): 0.1 ± 0.04 %ID/g

Excerpt of the above:
CCCC[C@H]1C(=O)N(C)[C@@H](CCCC)C(=O)N[C@@H](CCCNC(=O)CN2CCN(CC(=O)O)CCN(CC(=O)O)CCN(CC(=O)O)CC2)C(=O)N[C@H](C(=O)NCC(N)=O)CSCC(=O)N[C@@H](Cc2ccc(O)cc2)C(=O)N(C)[C@@H](C)C(=O)N[C@@H](CC(N)=O)C(=O)N2CCC[C@H]2C(=O)N[C@@H](Cc2c[nH]cn2)C(=O)N[C@@H](CC(C)C)C(=O)N(C)CC(=O)N[C@@H](Cc2c[nH]c3ccccc23)C(=O)N[C@@H](CO)C(=O)N[C@@H](Cc2c[nH]c3ccccc23)C(=O)N1C [gallium-68 labelled]
tissue uptake (NOD/SCID mice with CHO-hPD-L1 xenograft, spleen; 10 min post injection): 3.78 ± 0.54 %ID/g
